Experimental data of several laboratories.
Every numbered part comes from another study and shows a few of its results, in no order. “And” joins repeats or separate records; there may be more than shown.
Sequence of UniProt P10721 (whole entry, unmodified, looked up): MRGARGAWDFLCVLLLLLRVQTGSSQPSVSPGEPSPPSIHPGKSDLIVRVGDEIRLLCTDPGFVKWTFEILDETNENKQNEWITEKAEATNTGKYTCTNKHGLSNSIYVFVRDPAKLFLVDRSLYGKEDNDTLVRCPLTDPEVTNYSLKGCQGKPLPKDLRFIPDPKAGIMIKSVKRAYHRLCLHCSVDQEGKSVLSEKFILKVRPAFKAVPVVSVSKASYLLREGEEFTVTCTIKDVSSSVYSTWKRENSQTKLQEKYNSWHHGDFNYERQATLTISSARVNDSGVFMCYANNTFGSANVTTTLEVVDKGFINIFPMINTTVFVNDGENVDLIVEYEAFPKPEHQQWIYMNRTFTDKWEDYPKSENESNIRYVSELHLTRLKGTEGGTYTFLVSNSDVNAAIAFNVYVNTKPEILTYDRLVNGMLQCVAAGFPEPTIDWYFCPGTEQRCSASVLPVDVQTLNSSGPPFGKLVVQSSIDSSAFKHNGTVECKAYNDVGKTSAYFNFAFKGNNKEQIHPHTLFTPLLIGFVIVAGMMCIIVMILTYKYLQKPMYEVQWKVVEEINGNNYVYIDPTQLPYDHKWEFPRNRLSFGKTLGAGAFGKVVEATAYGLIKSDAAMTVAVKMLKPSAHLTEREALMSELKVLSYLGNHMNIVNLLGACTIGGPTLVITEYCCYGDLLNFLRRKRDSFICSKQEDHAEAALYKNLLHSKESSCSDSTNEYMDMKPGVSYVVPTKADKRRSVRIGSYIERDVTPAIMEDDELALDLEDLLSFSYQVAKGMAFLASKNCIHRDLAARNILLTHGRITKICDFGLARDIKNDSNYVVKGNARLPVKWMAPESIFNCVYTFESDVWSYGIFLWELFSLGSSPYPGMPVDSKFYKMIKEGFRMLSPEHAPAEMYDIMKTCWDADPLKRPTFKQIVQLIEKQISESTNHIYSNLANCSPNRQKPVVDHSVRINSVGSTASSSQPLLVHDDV
Sequence of UniProt Q86Z02 (whole entry, looked up): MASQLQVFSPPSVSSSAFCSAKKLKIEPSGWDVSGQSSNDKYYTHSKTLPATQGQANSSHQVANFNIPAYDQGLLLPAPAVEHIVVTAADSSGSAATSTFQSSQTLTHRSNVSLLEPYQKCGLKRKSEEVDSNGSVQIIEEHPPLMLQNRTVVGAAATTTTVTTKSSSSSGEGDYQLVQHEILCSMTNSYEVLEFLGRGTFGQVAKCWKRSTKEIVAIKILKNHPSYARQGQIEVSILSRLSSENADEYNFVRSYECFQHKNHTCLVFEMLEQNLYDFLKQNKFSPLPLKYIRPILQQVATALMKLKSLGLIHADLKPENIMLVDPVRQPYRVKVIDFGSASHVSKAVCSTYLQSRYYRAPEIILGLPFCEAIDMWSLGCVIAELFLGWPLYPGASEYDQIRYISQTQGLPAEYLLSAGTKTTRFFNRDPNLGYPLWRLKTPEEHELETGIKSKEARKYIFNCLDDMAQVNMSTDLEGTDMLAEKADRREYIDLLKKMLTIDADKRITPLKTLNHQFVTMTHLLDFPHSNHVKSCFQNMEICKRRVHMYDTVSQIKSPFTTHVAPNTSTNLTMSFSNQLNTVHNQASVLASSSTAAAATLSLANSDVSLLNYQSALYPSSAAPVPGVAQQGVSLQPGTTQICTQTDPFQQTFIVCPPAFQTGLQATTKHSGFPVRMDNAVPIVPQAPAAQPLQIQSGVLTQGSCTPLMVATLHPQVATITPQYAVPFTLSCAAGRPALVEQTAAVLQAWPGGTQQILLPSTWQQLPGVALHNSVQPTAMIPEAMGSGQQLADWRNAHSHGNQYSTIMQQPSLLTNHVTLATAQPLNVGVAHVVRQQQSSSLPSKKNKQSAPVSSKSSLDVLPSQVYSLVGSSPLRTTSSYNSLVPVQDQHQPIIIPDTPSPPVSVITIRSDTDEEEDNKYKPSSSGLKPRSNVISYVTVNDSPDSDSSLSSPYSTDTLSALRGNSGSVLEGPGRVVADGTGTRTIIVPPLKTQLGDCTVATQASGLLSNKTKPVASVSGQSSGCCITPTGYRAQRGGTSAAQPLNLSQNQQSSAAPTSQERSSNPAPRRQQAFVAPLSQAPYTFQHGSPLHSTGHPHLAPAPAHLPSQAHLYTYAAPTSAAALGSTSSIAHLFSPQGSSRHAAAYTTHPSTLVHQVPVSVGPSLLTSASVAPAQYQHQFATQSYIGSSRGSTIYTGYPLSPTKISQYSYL
Sequence of UniProt P48729 (whole entry, looked up): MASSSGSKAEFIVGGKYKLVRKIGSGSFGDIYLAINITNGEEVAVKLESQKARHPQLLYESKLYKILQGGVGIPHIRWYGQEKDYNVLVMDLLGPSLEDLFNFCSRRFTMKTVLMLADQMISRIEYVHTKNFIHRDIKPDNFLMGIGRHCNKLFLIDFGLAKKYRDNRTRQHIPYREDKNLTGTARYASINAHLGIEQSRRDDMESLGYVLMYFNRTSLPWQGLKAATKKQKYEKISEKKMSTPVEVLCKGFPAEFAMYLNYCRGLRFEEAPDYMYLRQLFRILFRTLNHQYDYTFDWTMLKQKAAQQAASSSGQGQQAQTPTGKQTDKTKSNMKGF
Sequence of UniProt P21860 (whole entry, looked up): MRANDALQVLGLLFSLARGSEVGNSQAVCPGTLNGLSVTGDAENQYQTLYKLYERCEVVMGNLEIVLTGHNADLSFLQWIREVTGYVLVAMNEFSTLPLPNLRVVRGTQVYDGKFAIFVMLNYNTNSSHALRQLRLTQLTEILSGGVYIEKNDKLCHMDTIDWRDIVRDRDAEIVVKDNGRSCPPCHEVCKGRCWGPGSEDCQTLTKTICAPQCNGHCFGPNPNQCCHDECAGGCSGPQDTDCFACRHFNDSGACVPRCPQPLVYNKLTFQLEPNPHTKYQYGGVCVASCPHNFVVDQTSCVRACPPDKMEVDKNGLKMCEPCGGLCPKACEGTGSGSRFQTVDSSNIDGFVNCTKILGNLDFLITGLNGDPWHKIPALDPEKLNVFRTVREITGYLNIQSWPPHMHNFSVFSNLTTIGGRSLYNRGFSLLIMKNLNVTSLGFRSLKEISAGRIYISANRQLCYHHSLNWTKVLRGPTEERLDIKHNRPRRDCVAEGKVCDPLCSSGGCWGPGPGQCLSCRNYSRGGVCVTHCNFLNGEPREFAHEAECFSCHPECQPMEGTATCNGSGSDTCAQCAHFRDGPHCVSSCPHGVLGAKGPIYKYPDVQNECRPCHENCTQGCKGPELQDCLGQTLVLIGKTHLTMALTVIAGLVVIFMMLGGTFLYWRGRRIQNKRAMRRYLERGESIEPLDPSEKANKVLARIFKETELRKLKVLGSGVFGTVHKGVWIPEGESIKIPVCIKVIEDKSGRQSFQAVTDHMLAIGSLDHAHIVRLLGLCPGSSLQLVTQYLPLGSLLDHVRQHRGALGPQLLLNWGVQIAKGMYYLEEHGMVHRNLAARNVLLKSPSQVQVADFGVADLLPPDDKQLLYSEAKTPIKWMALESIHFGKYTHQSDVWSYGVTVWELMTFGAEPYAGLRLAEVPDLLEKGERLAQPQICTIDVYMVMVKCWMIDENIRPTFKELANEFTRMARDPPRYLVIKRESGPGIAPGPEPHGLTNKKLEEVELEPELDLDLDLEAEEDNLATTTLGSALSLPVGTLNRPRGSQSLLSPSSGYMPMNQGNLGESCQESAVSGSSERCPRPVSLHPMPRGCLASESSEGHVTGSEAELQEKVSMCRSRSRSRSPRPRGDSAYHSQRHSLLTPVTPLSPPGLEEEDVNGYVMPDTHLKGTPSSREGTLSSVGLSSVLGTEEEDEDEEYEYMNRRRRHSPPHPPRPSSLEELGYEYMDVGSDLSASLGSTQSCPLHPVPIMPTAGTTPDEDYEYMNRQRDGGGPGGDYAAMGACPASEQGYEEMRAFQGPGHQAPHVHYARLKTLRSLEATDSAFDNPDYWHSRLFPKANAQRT

Series 1
Structure (SMILES): CN1CCN(c2cnc3c(C4CCN(C(=O)c5ccc(OC(F)(F)F)cc5N)CC4)ncnc3c2)CC1
Read-out: cell-free assay
Technique: competition with immobilised ligand
Concentration: 1 µM
target	remaining binding [%]
Mast/stem cell growth factor receptor Kit (KIT, Homo sapiens, UniProt P10721)	98
Receptor tyrosine-protein kinase erbB-3 (ERBB3, Homo sapiens, UniProt P21860)	84
Citron Rho-interacting kinase (CIT, Homo sapiens, UniProt O14578)	100
Activated CDC42 kinase 1 (TNK2, Homo sapiens, UniProt Q07912)	100
Serine/threonine-protein kinase N1 (PKN1, Homo sapiens, UniProt Q16512)	100
Homeodomain-interacting protein kinase 1 (HIPK1, Homo sapiens, UniProt Q86Z02)	99
Hepatocyte growth factor receptor (MET, Homo sapiens, UniProt P08581)	69
Mast/stem cell growth factor receptor Kit (KIT, Homo sapiens, UniProt P10721, T670I/V559D)	100
Casein kinase I isoform alpha (CSNK1A1, Homo sapiens, UniProt P48729)	91

Series 2
Organism: Sarcocystis neurona
Read-out: parasite growth
Concentration: 10 µM
Time: 96 h
Setting: second screen
Baseline: untreated
SMILES	log2 fold change
CN(C)CC/C=C1/c2ccccc2COc2ccc(CC(=O)O)cc21	0.24
C[C@H]1C[C@@H]2[C@H]([C@@H](O)C[C@@]3(C)[C@H]2CC[C@]3(O)C(=O)CO)[C@@]2(C)C=CC(=O)C=C12	0.34
OCc1cc(C(O)CNCCCCCCOCCCCc2ccccc2)ccc1O (stereo not drawn)	-0.42
CCN(CC)CC1CCCCN1CC(=O)N1c2ccccc2C(=O)Nc2cccnc21 (stereo not drawn)	0.28
Cn1c(=O)c2[nH]cnc2n(C)c1=O	0.13
CC(COc1ccccc1)N(CCCl)Cc1ccccc1 (stereo not drawn)	0.36
COCCCOc1ccnc(C[S+]([O-])c2nc3ccccc3[nH]2)c1C (stereo not drawn)	0.62
CCS(=O)(=O)CCn1c([N+](=O)[O-])cnc1C	0.27

Series 3
Target: LIM domain kinase 1 (LIMK1, Homo sapiens, UniProt P53667)
Sequence of UniProt P53667 (whole entry, looked up): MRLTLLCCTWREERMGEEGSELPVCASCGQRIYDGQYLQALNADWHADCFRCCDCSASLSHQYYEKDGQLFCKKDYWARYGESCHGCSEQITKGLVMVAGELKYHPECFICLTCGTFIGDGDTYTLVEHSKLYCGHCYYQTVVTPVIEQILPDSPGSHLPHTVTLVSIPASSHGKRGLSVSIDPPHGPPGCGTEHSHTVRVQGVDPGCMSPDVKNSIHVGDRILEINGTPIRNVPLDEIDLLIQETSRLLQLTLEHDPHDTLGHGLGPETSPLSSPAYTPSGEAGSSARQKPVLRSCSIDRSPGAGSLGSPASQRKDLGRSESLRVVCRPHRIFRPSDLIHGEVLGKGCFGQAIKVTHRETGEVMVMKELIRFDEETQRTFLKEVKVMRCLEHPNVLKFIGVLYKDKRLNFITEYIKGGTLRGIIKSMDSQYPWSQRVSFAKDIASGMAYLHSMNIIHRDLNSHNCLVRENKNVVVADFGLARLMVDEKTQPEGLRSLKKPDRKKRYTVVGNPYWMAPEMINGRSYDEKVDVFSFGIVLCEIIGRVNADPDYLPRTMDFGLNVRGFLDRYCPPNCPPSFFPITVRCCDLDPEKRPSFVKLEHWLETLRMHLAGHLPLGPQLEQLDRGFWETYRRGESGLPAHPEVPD
Read-out: enzyme activity
Mode: inhibitor
Concentration: 0.5 µM
Baseline: control
SMILES	remaining activity [%]
COc1cc2nccc(Oc3ccc(NC(=S)NC(=O)c4ccccc4C)cc3)c2cc1OC	82.7
CNC(=O)c1cc(Oc2ccc(NC(=O)Nc3ccc(Cl)c(C(F)(F)F)c3)cc2)ccn1	76.8
N#CC(C#N)=C(N)/C(C#N)=C/c1ccc(O)cc1	89.9
Cc1cccc(-c2[nH]c(C(C)(C)C)nc2-c2ccc3c(c2)OCO3)n1	86.2
CC(C)[C@H](CO)Nc1nc(Nc2cc(N)cc(Cl)c2)c2ncn(C(C)C)c2n1	107
CN(C)c1ccc(C=C2C(=O)Nc3ccccc32)cc1	97.7
OCC(O)CCON=C1C(c2c(O)[nH]c3ccccc23)=Nc2ccccc21 (stereo not drawn)	39.5
O=C(CCCc1ccc(-c2ccccc2F)cc1)Nc1ccc(O)cc1	106
C#Cc1cccc(Nc2ncnc3cc(OCCOC)c(OCCOC)cc23)c1	90.4
O=C(O)c1ccc2c3c1cccc3c(=O)n1c3ccccc3nc21	92.7
Nc1ccc2ncnc(NCCc3ccc(Oc4ccccc4)cc3)c2c1	101
O=C(Nc1cccc(Nc2cc(Nc3cccc(C(F)(F)F)c3)ncn2)c1)C1CC1	95.9
Nc1ncnc2n[nH]c(Nc3ccc(F)cc3)c12	95.2
Cn1sc(=O)n(Cc2ccccc2)c1=O	101
Cc1ccc(NC(=O)c2ccc(CN3CCN(C)CC3)cc2)cc1Nc1nc(-c2cccnc2)cs1	98.1

Further values, each from its own experiment
SMILES	assay	test system	setting	how to read	quantity	value
CC(=O)N[C@@H](Cc1c[nH]c2ccccc12)C(=O)N[C@@H](CCC(=O)C=[N+]=[N-])C(=O)OC(C)C	UPLC-MS/MS	EL4 tumor, C57BL/6 CES1-/- mice, tumor	subcutaneous, 0.3 mg/kg DON equivalent daily, 5 days	higher = more metabolite	ribose level	3.36e+06 a.u. and 2.64e+06 a.u. and 2.6e+06 a.u. and 3.8e+06 a.u. and 2.81e+06 a.u. and 3.04e+06 a.u.

A few entries again (series 1):
target	remaining binding [%]
Serine/threonine-protein kinase N1 (PKN1, Homo sapiens, UniProt Q16512)	100
Homeodomain-interacting protein kinase 1 (HIPK1, Homo sapiens, UniProt Q86Z02)	99
Hepatocyte growth factor receptor (MET, Homo sapiens, UniProt P08581)	69
Mast/stem cell growth factor receptor Kit (KIT, Homo sapiens, UniProt P10721, T670I/V559D)	100
